Measured values gathered from unrelated publications.
A part holds a random share of what one study measured.

Series 1 — method: protein-binding microarray; form: double-stranded DNA, one strand shown; medium: in vitro; tested at: 940 nM top; notes: 60-bp whole probe; together with: salmon DNA 0.4 mg/ml; relative to: random background probes; direction: higher = stronger binding; all sequences stand within: GCCTAGCAC … GTCTTGATTCGCTTGACGCTGCTG
Target: Interferon regulatory factor 5, full length, phosphomimetic (IRF5, Homo sapiens, UniProt Q13568-2, residues 1-514, S451D/S453D/S456D/S462D)
Sequence | fitted relative affinity [z-score]
CTGAGATGCATTCTGGGCCCGTGCTAG | -0.557
TTAGGATTGGGGTATCGGTTAGTGCTA | 2.79
CTAGATATCAGTATCGATTAGTGCTAG | 4.81
TTAGATATCAAACTGGATTAGTGCTAG | -0.298
TTAGTACTGAGTCTCGATTAGTGCTAG | 2.55
TTAGGATTCCTTTTCCTTTAGTGCTAG | 0.215

Series 2 — method: aptamer microarray, sandwich; form: DNA with 2'F-ANA; medium: in vitro; tested at: 200 nM; together with: Cy3 exosite-II aptamer, 400 nM; direction: higher = stronger binding; sequence: GGTTGGTGTGGTTGG
Target: Prothrombin, mature alpha-thrombin (F2, Homo sapiens, UniProt P00734)
Notes: whole 15-mer aptamer, many near background
Modification | mean fluorescence intensity
2'F-ANA at 2 4 6 8 9 11 13 15 | 151 a.u.
2'F-ANA at 3 9 10 12 13 15 | 561 a.u.
2'F-ANA at 1 2 3 5 7 9 10 12 | 50.4 a.u.
2'F-ANA at 1 4 5 6 8 9 10 13 14 | 49.2 a.u.
2'F-ANA at 5 7 8 9 11 12 14 | 45.8 a.u.
2'F-ANA at 1 4 5 6 7 9 13 14 15 | 45.9 a.u.

Series 3 — method: universal PBM; form: double-stranded DNA, one strand shown; medium: in vitro; tested at: not given; direction: higher = stronger binding
Target: Sal-like protein 4, full length isoform B (SALL4, Homo sapiens, UniProt Q9UJQ4-2, residues 1-616)
Notes: 8-mer, flanks averaged, mean of replicates
Residues (chain): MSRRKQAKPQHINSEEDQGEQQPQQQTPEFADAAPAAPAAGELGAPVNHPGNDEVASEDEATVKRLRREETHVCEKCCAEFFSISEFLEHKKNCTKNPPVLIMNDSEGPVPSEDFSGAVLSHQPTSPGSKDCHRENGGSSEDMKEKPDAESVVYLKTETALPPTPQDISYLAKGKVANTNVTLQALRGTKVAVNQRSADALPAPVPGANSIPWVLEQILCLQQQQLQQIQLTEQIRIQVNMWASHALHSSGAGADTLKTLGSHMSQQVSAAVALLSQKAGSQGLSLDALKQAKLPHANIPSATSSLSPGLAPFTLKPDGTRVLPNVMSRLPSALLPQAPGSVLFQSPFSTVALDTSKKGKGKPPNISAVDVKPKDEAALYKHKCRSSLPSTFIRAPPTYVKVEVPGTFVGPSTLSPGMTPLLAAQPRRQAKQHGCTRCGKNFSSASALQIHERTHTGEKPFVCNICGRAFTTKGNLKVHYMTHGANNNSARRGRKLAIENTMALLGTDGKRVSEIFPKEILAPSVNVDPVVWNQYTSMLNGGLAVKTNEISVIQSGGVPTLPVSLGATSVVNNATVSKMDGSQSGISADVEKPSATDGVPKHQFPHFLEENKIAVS
Sequence | E-score
CACTTAAC | 0.0684
AGAGGTTC | -0.0201
ACGTTCGG | -0.253
CAAACCCG | -0.13
GGATTACC | -0.0833

Mixed results
Substance | target | assay | test system | setting | scale | quantity | result
PhoQ, residues 284 288 289 292 302 303 QWGLFV | PhoP, residues 12 14 15 18 19 LHTVM (Escherichia coli, UniProt P23836) | Sort-seq, measured: YFP reporter | E. coli | PhoQ-PhoP variant library, together with: 10 µM Mg2+ | relative to: high Mg2+ state, higher = stronger signaling | fold induction | 15.3
